Measured values of several laboratories.
Lines come from different studies, so protocols differ. In brackets after ≈: the same amount, converted by molar mass.
Organism: Acinetobacter baumannii

SMILES	test	test system	conditions	how to read	measurement	value
Oc1cc(C(F)(F)F)ccc1-c1nc2c(C(F)(F)F)cc(C(F)(F)F)cc2[nH]1	colistin potentiator	AB 2A8, colistin-resistant	5 µM	–	colistin MIC	0.125 mg/L
CC[C@@H](C)[C@@H](NC(=O)[C@@H](C)NC(=O)[C@@H](CCCCN)NC(=O)[C@@H](CC(C)C)NC(=O)[C@@H](C)NC(=O)[C@H](NC(=O)[C@@H](Cc1c[nH]cn1)NC(=O)[C@@H](CC(C)C)NC(=O)[C@H](NC(=O)[C@H](NC(=O)[C@@H](CCCCN)NC(=O)[C@@H](CCCCN)NC(=O)[C@@H](C)NC(=O)[C@@H](CO)NC(=O)[C@@H](CCCCN)NC(=O)[C@@H](Cc1ccccc1)NC(=O)[C@H](NC(=O)[C@@H](CCCCN)NC(=O)[C@@H](CC(C)C)NC(=O)[C@@H](Cc1ccccc1)NC(=O)[C@@H](CO)NC(=O)[C@@H](CCCCN)NC(=O)[C@@H](Cc1c[nH]c2ccccc12)NC(=O)[C@@H](CCCCN)NC(C)=O)[C@H](C)O)[C@H](C)O)C(C)C)[C@H](C)O)C(=O)N[C@H](CO)C(=O)N[C@H](CO)C(N)=O	–	11 isolates	24 h, 37 °C	–	MIC geometric mean	1.1 µM (≈ 3.29 µg/mL)
CC[C@H](C)[C@H](NC(=O)[C@H](CCCCN)NC(=O)[C@@H](NC(=O)[C@H](CS)NC(=O)[C@H](CCCNC(=N)N)NC(=O)[C@H](CCCNC(=N)N)NC(=O)[C@H](CC(N)=O)NC(=O)[C@H](CCCNC(=N)N)NC(=O)[C@H](CS)NC(=O)[C@@H](NC(=O)[C@H](CO)NC(=O)[C@@H](NC(=O)[C@H](CS)NC(=O)[C@H](CCCCN)NC(=O)[C@@H](N)CCCNC(=N)N)[C@@H](C)CC)C(C)C)[C@@H](C)CC)C(=O)N[C@@H](CS)C(=O)N[C@@H](CCCNC(=N)N)C(=O)O	–	AB5075, Mueller-Hinton broth with human serum	median, 40% human serum	–	MBC	16 mg/L (≈ 7.59 µM)
CCn1c(-c2ccc(OC)cc2)c(-c2ccc(OC)cc2)n(CC)c1=[Se+][Au-][P+](CC)(CC)CC.[Cl-]	bacterial growth, checkerboard microdilution	carbapenem-resistant	with: cefotaxime	–	FIC index	0.375
Oc1ccc(C(F)(F)F)cc1-c1nc2c(Cl)cc(Cl)cc2[nH]1	colistin potentiator	AB 17978, mcr-1, colistin-resistant	5 µM	–	colistin MIC	0.5 mg/L
CC(C)[C@H](N)C(=O)N[C@H]1CSSC[C@@H](C(=O)N[C@H](C(N)=O)C(C)C)NC(=O)[C@H](Cc2c[nH]c3ccccc23)NC(=O)[C@H](CCCCN)NC(=O)[C@H](CCCCN)NC(=O)[C@H](Cc2c[nH]c3ccccc23)NC(=O)[C@H](CCCCN)NC(=O)[C@H](CCCNC(=N)N)NC(=O)[C@H](CCCCN)NC(=O)[C@H](Cc2c[nH]c3ccccc23)NC(=O)[C@H](CCCCN)NC(=O)[C@H](CCCCN)NC(=O)[C@H](Cc2c[nH]c3ccccc23)NC(=O)[C@H](CCCNC(=N)N)NC(=O)[C@H](CCCCN)NC1=O	–	22933	1 x MIC, 37 °C	–	time to complete killing	≤ 30 min
CC(C)C[C@H](NC(=O)[C@H](Cc1ccc(O)cc1)NC(=O)[C@@H]1CCCN1C(=O)[C@H](CCCNC(=N)N)NC(=O)[C@@H]1CCCN1C(=O)[C@H](CCCCN)NC(=O)[C@H](CC(=O)O)NC(=O)[C@@H]1CCCN1C(=O)[C@H](CCCNC(=N)N)NC(=O)C1(N)CCCCC1)C(=O)N1CCC[C@H]1C(=O)N[C@@H](CCCNC(=N)N)C(=O)N1CCC[C@H]1C(=O)N[C@@H](CCCNC(=N)N)C(=O)N1CCC[C@H]1C(=O)N1CCC[C@H]1C(=O)N[C@@H](CCCNC(=N)N)C(=O)N1CCC[C@H]1C(=O)N[C@H](C(=O)N[C@@H](CCCNC(=N)N)C(=O)N[C@@H](CSc1c(F)c(F)c(-c2c(F)c(F)c(SC[C@H](NC(=O)[C@H](CCCNC(=N)N)NC(=O)[C@@H](NC(=O)[C@@H]3CCCN3C(=O)[C@H](CCCNC(=N)N)NC(=O)[C@@H]3CCCN3C(=O)[C@@H]3CCCN3C(=O)[C@H](CCCNC(=N)N)NC(=O)[C@@H]3CCCN3C(=O)[C@H](CCCNC(=N)N)NC(=O)[C@@H]3CCCN3C(=O)[C@H](CC(C)C)NC(=O)[C@H](Cc3ccc(O)cc3)NC(=O)[C@@H]3CCCN3C(=O)[C@H](CCCNC(=N)N)NC(=O)[C@@H]3CCCN3C(=O)[C@H](CCCCN)NC(=O)[C@H](CC(=O)O)NC(=O)[C@@H]3CCCN3C(=O)[C@H](CCCNC(=N)N)NC(=O)C3(N)CCCCC3)C(C)C)C(=O)NN)c(F)c2F)c(F)c1F)C(=O)NN)C(C)C	time-kill	–	4 × MIC, 60 min	–	reduction in viable count	1.81 log CFU/mL
CCn1c(-c2ccc(-c3ccc(F)cc3)cc2)c(-c2ccc(-c3ccc(F)cc3)cc2)n(CC)c1=[Se+][Au-][P+](CC)(CC)CC.[Cl-]	–	carbapenem-resistant	10, 20, 40 µM, 2 h	relative to: untreated	superoxide dismutase activity	decreased
O=c1c(O)ccc(Br)cc1O	–	multidrug-resistant Ab3	–	–	MIC80	19.8 µM (≈ 4.3 µg/mL)
CC(C)C[C@H](NC(=O)[C@H](Cc1ccc(O)cc1)NC(=O)[C@@H]1CCCN1C(=O)[C@H](CCCNC(=N)N)NC(=O)[C@@H]1CCCN1C(=O)[C@H](CCCCN)NC(=O)[C@H](CC(=O)O)NC(=O)[C@@H]1CCCN1C(=O)[C@H](CCCNC(=N)N)NC(=O)C1(N)CCCCC1)C(=O)N1CCC[C@H]1C(=O)N[C@@H](CCCNC(=N)N)C(=O)N1CCC[C@H]1C(=O)N[C@@H](CCCNC(=N)N)C(=O)N1CCC[C@H]1C(=O)N1CCC[C@H]1C(=O)N[C@@H](CCCNC(=N)N)C(=O)N1CCC[C@H]1C(=O)N[C@H](C(=O)N[C@@H](CCCNC(=N)N)C(=O)N[C@@H](CSc1c(F)c(F)c(SC[C@H](NC(=O)[C@H](CCCNC(=N)N)NC(=O)[C@@H](NC(=O)[C@@H]2CCCN2C(=O)[C@H](CCCNC(=N)N)NC(=O)[C@@H]2CCCN2C(=O)[C@@H]2CCCN2C(=O)[C@H](CCCNC(=N)N)NC(=O)[C@@H]2CCCN2C(=O)[C@H](CCCNC(=N)N)NC(=O)[C@@H]2CCCN2C(=O)[C@H](CC(C)C)NC(=O)[C@H](Cc2ccc(O)cc2)NC(=O)[C@@H]2CCCN2C(=O)[C@H](CCCNC(=N)N)NC(=O)[C@@H]2CCCN2C(=O)[C@H](CCCCN)NC(=O)[C@H](CC(=O)O)NC(=O)[C@@H]2CCCN2C(=O)[C@H](CCCNC(=N)N)NC(=O)C2(N)CCCCC2)C(C)C)C(=O)NN)c(F)c1F)C(=O)NN)C(C)C	inner membrane permeabilization, PI/SYTO flow cytometry	–	concentration not given, 60 min, 37 °C	–	PI-positive bacteria	> 80%

Repeated from above:
SMILES	test	test system	conditions	how to read	measurement	value
CC(C)C[C@H](NC(=O)[C@H](Cc1ccc(O)cc1)NC(=O)[C@@H]1CCCN1C(=O)[C@H](CCCNC(=N)N)NC(=O)[C@@H]1CCCN1C(=O)[C@H](CCCCN)NC(=O)[C@H](CC(=O)O)NC(=O)[C@@H]1CCCN1C(=O)[C@H](CCCNC(=N)N)NC(=O)C1(N)CCCCC1)C(=O)N1CCC[C@H]1C(=O)N[C@@H](CCCNC(=N)N)C(=O)N1CCC[C@H]1C(=O)N[C@@H](CCCNC(=N)N)C(=O)N1CCC[C@H]1C(=O)N1CCC[C@H]1C(=O)N[C@@H](CCCNC(=N)N)C(=O)N1CCC[C@H]1C(=O)N[C@H](C(=O)N[C@@H](CCCNC(=N)N)C(=O)N[C@@H](CSc1c(F)c(F)c(-c2c(F)c(F)c(SC[C@H](NC(=O)[C@H](CCCNC(=N)N)NC(=O)[C@@H](NC(=O)[C@@H]3CCCN3C(=O)[C@H](CCCNC(=N)N)NC(=O)[C@@H]3CCCN3C(=O)[C@@H]3CCCN3C(=O)[C@H](CCCNC(=N)N)NC(=O)[C@@H]3CCCN3C(=O)[C@H](CCCNC(=N)N)NC(=O)[C@@H]3CCCN3C(=O)[C@H](CC(C)C)NC(=O)[C@H](Cc3ccc(O)cc3)NC(=O)[C@@H]3CCCN3C(=O)[C@H](CCCNC(=N)N)NC(=O)[C@@H]3CCCN3C(=O)[C@H](CCCCN)NC(=O)[C@H](CC(=O)O)NC(=O)[C@@H]3CCCN3C(=O)[C@H](CCCNC(=N)N)NC(=O)C3(N)CCCCC3)C(C)C)C(=O)NN)c(F)c2F)c(F)c1F)C(=O)NN)C(C)C	time-kill	–	4 × MIC, 60 min	–	reduction in viable count	1.81 log CFU/mL
